Measured values from different studies.
Numbered parts are unrelated; each lists some results of a single study. Positions count from the first letter of the parent shown.
Chain of UniProt P23458 (whole entry, looked up): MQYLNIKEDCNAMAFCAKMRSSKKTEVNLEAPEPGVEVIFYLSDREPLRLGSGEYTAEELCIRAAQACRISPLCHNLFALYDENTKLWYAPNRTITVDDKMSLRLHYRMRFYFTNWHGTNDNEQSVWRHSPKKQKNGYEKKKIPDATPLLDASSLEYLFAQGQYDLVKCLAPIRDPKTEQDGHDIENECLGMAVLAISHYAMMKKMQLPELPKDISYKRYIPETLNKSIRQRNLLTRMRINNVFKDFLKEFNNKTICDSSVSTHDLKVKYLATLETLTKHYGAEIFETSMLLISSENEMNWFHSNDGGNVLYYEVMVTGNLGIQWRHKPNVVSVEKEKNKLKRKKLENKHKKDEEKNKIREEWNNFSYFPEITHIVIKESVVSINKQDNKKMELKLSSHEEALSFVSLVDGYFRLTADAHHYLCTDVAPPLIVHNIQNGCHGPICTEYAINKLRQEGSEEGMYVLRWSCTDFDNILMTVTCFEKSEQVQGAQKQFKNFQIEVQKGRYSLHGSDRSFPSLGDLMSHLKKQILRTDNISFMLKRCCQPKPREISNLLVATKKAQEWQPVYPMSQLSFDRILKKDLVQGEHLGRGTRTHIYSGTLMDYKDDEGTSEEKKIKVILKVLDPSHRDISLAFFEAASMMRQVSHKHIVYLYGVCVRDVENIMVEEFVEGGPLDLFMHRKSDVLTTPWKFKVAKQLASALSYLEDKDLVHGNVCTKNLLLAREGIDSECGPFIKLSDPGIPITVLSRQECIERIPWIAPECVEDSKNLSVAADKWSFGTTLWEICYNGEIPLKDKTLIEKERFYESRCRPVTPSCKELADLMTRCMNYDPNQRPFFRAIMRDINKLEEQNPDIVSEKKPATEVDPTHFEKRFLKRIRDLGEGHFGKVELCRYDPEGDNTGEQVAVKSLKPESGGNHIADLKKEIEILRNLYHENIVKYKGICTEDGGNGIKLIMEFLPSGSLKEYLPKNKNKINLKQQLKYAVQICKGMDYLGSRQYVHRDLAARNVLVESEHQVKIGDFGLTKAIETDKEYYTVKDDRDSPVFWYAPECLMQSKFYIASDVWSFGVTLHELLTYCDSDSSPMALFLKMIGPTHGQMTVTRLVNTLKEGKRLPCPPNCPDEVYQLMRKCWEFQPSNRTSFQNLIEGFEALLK
Chain of UniProt P42336 (whole entry, unmodified, looked up): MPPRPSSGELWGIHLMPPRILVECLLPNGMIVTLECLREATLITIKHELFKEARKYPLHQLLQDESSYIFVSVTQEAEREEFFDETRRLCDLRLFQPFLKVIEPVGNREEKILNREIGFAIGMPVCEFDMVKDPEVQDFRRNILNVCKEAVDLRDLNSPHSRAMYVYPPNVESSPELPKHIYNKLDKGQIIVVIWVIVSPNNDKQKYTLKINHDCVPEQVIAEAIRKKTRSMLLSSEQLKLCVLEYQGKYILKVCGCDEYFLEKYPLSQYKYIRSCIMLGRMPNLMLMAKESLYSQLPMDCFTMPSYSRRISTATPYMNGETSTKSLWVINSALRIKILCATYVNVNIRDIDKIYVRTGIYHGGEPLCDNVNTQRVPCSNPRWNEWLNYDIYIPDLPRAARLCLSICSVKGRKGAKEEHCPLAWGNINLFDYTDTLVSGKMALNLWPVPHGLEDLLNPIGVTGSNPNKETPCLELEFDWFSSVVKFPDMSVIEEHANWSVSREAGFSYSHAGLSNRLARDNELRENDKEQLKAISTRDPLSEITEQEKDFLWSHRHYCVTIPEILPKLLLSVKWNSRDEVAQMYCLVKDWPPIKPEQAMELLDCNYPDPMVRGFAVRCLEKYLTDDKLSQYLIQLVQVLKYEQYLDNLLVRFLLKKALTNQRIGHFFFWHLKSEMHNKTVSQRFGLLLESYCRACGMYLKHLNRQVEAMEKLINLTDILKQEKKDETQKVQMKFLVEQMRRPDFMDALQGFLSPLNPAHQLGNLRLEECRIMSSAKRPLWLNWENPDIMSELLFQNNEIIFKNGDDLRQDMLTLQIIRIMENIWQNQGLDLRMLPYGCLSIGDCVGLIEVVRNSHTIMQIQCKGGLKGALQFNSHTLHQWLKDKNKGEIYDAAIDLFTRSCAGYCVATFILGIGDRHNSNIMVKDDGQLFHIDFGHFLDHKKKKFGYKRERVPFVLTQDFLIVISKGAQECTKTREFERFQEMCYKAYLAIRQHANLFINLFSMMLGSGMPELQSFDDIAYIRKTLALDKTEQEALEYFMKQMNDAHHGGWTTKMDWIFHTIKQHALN
Chain of UniProt P49840 (whole entry, looked up): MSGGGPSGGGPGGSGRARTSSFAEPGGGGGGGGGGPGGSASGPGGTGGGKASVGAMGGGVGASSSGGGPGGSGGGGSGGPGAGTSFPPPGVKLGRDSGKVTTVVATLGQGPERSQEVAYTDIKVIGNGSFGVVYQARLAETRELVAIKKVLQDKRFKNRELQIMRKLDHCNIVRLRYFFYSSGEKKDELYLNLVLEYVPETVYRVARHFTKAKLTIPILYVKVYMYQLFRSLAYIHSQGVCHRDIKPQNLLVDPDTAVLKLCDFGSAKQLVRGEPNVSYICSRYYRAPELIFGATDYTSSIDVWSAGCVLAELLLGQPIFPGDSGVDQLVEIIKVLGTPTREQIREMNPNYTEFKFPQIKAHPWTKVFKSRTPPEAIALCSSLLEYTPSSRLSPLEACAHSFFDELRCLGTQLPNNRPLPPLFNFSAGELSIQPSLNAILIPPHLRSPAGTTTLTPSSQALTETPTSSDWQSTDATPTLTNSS
Chain of UniProt Q9UPE1 (whole entry, looked up): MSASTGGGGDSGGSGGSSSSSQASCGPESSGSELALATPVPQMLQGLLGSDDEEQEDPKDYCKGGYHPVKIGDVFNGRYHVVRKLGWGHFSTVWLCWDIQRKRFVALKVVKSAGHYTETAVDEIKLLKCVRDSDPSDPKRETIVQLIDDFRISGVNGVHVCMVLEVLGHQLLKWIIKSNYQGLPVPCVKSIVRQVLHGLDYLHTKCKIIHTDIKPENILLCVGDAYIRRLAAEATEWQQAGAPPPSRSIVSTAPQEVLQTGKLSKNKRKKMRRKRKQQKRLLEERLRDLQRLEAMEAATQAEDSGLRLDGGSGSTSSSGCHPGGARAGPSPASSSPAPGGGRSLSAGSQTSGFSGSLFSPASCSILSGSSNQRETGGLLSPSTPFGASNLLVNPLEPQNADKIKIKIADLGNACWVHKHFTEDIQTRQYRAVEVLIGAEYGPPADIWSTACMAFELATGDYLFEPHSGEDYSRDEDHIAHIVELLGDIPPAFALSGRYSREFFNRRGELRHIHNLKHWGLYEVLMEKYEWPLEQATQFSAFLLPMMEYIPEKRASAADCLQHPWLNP
Chain of UniProt P53667 (whole entry, looked up): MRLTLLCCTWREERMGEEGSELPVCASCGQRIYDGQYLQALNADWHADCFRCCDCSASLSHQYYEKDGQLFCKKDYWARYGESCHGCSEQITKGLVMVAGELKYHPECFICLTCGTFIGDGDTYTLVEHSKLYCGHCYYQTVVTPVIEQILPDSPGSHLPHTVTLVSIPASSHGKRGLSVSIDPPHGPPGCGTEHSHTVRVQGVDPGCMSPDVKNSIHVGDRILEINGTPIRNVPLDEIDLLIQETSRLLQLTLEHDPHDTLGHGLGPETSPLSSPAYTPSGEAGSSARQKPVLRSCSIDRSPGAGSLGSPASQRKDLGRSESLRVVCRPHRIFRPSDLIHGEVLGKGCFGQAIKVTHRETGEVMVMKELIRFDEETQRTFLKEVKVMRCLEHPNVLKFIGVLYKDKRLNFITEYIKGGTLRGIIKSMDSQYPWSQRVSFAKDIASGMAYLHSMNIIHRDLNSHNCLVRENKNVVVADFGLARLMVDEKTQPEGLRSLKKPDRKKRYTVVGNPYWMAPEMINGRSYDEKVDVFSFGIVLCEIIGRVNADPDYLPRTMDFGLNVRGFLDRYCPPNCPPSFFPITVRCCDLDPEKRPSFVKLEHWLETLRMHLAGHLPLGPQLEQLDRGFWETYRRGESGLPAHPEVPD
Chain of UniProt P11802 (whole entry, looked up): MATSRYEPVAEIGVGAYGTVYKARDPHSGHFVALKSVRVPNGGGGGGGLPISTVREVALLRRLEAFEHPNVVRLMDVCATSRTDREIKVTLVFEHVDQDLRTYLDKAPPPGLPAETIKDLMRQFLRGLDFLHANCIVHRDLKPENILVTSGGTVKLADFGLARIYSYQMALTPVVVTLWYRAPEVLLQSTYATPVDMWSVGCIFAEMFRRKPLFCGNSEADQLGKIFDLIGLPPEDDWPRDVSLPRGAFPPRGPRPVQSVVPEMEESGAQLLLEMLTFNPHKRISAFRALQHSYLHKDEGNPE
Chain of UniProt Q9HBY8 (whole entry, looked up): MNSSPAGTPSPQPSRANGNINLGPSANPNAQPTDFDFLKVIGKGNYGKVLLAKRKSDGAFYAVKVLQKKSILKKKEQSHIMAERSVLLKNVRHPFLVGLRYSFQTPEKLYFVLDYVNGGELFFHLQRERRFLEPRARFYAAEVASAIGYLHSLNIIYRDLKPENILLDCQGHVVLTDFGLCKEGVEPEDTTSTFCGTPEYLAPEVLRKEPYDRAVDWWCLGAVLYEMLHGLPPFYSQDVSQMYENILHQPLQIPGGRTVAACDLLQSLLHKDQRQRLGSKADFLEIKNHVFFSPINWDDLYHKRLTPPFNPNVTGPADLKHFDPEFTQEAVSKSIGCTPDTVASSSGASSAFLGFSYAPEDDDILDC
Chain of UniProt Q9HCP0 (whole entry, looked up): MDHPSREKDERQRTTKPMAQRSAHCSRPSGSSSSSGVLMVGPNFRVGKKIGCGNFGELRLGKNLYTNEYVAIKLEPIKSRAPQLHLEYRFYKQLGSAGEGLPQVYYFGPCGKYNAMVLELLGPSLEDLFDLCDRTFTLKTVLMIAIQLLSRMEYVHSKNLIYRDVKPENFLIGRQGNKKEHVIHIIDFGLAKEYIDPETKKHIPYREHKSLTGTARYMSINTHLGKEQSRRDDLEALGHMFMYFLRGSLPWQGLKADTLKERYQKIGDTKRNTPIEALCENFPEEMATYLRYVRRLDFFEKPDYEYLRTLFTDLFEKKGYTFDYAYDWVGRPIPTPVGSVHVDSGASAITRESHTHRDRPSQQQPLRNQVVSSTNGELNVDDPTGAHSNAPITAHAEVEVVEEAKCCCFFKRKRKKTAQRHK

Set 1
SMILES: COc1cc(Nc2c(C#N)cnc3cc(OCCCN4CCN(C)CC4)c(OC)cc23)c(Cl)cc1Cl
Read-out: enzyme activity
Action: inhibitor
Concentration: 0.5 µM
Reference: control
target | remaining activity [%]
JAK1 (Homo sapiens, UniProt P23458) | 99
PRKCZ (Homo sapiens, UniProt Q05513) | 89.7
Cyclin-dependent kinase 2, with cyclin E (CDK2, Homo sapiens, UniProt P24941) | 98.3
SGK2 (Homo sapiens, UniProt Q9HBY8) | 103

Set 2
SMILES: O=C(O)c1cc(-c2ccc(C3CCNCC3)cc2)c2ccc(-c3ccc(C(F)(F)F)cc3)cc2c1
Method: competition with immobilised ligand
Concentration: 1 µM
target | read-out | remaining binding
GRK2 (Homo sapiens, UniProt P25098) | cell-free assay | 100%
GSK3A (Homo sapiens, UniProt P49840) | cell-free assay | 99%
PAK5 (Homo sapiens, UniProt Q9P286) | cell-free assay | 100%
CDK9 (Homo sapiens, UniProt P50750) | cell-free assay | 100%
SRPK3 (Homo sapiens, UniProt Q9UPE1) | cell-free assay | 82%
PKMYT1 (Homo sapiens, UniProt Q99640) | cell-free assay | 100%
PNCK (Homo sapiens, UniProt Q6P2M8) | cell-free assay | 100%
TEK (Homo sapiens, UniProt Q02763) | cell-free assay | 100%
FES (Homo sapiens, UniProt P07332) | cell-free assay | 100%
CDK4 (Homo sapiens, UniProt P11802) | cell-free assay | 100%
CDK5 (Homo sapiens, UniProt Q00535) | cell-free assay | 100%
PIK3CA (Homo sapiens, UniProt P42336, E545A) | cell-free assay | 87%
LIM domain kinase 1 (LIMK1, Homo sapiens, UniProt P53667) | cell-free assay | 100%
ACVR2B (Homo sapiens, UniProt Q13705) | cell-free assay | 100%
Tyrosine-protein kinase JAK1, JH2 (JAK1, Homo sapiens, UniProt P23458) | cell-free assay | 87%
FLT3 (Homo sapiens, UniProt P36888, N841I) | cell-free assay | 100%
CSNK1G1 (Homo sapiens, UniProt Q9HCP0) | cell-free assay | 100%
BMPR1A (Homo sapiens, UniProt P36894) | binding | 100%
LRRK2 (Homo sapiens, UniProt Q5S007, G2019S) | cell-free assay | 100%
CSF1R (Homo sapiens, UniProt P07333) | cell-free assay | 100%

Set 3
Target: CRIPT, C-terminal peptide
Method: DHFR complementation, deep sequencing
Matrix: yeast
Notes: single substitutions, model-inferred values
Reference: wild type
Reading: higher = weaker binding
Starting sequence: ERBIN, PDZ domain 1 (human); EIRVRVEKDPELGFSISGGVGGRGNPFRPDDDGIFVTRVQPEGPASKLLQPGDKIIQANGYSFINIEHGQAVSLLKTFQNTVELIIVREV; partner TKNYKQTSV
Substitution | binding free energy change
G43T | 0.85 kcal/mol
N65C | 0.081 kcal/mol
I16C | 1.18 kcal/mol
F27E | 0.852 kcal/mol
I56A | 0.127 kcal/mol
A58M | 0.913 kcal/mol
I2A | 0.32 kcal/mol
P26M | 0.796 kcal/mol

Set 4
Target: Histone acetyltransferase KAT6A, winged helix 2, GST fusion (KAT6A, Homo sapiens, UniProt Q92794, residues 85-181)
Method: protein binding microarray
Molecule type: double-stranded DNA, one strand shown
Matrix: in vitro
Concentration: not given
Notes: 8-mer, flanks averaged, mean of 2 arrays, mostly near background
Reference: not given
Reading: higher = stronger binding
Residues (chain): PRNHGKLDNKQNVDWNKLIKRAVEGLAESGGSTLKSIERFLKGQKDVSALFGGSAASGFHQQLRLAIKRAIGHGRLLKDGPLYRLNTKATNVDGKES
Oligonucleotide | E-score
ACGCACTA | 0.0239
AGGATTCA | -0.0113
GGCGTGTA | -0.0176
GTACCATA | -0.0653
GCCTTTCC | 0.136
CCAAACCC | 0.00373
TAATGACA | -0.0947
ATCTTGTA | 0.00995

Repeated from above (set 2):
target | read-out | remaining binding
BMPR1A (Homo sapiens, UniProt P36894) | binding | 100%
LRRK2 (Homo sapiens, UniProt Q5S007, G2019S) | cell-free assay | 100%
CSF1R (Homo sapiens, UniProt P07333) | cell-free assay | 100%
